Assay results of several laboratories.
Lines come from different studies, so protocols differ.

| SMILES | matrix | temperature | notes | together with | fluorescence lifetime [ns] |
| --- | --- | --- | --- | --- | --- |
| CCC1=[N+]2N=C(c3ccccc3)C(=O)O[B-]2(c2ccccc2)Oc2cc(OC)ccc21 (stereo not shown) | toluene | – | – | – | 0.97 |
| CN1CCN(c2ccc(/C=C/c3cc(=O)cc(/C=C/c4ccc(N5CCN(C)CC5)cc4)o3)cc2)CC1 | acetonitrile | 298 K | – | excitation 377 nm | 0.49 |
| CCN(CC)c1ccc2c(c1)O[B-]1(c3ccccc3OC)OC(=O)C(c3ccccc3)=N[N+]1=C2 (stereo not shown) | toluene | – | – | – | 2.46 |
| CCCCN1C(=O)c2cccc3c(NCCCN4CCOCC4)ccc(c23)C1=O | methanol | – | – | – | 9.3 |
| CCC1=[N+]2N=C(c3ccccc3)C(=O)O[B-]2(c2ccccc2)Oc2cc(N(CC)CC)ccc21 (stereo not shown) | toluene | – | – | – | 2.52 |
| O=c1cc(/C=C/c2ccc(N3CCCC3)cc2)oc(/C=C/c2ccc(N3CCCC3)cc2)c1 | acetonitrile/water 1:19 v/v | 298 K | aggregate nanoparticle suspension | excitation 377 nm | 1.1 |
| O=c1c(O)c(-c2ccc(N(c3ccccc3)c3ccccc3)cc2)oc2cc3ccccc3cc12 | DMSO, N2-purged | – | – | – | 0.97 |
| CCCCN1C(=O)c2cccc3c(NCCCCCCCCCCN4CCOCC4)ccc(c23)C1=O | toluene | – | – | – | 8.6 |
| COc1ccc2nc(-c3ccc(N(C)C)cc3)sc2c1 | PBS | – | free dye | – | 1.26 |
| O=c1cc(/C=C/c2ccc(N(c3ccccc3)c3ccccc3)cc2)oc(/C=C/c2ccc(N(c3ccccc3)c3ccccc3)cc2)c1 | acetonitrile | 298 K | – | excitation 377 nm | 0.56 |
| CCCCN1C(=O)c2cccc3c(NCCN4CCOCC4)ccc(c23)C1=O | methanol | – | – | – | 9.7 |
| O=c1cc(/C=C/c2ccc(N3CCOCC3)cc2)oc(/C=C/c2ccc(N3CCOCC3)cc2)c1 | acetonitrile/water 1:19 v/v | 298 K | aggregate nanoparticle suspension | excitation 377 nm | 1.1 |
| C=Cc1ccc([B-]23OC(=O)C(c4ccccc4)=N[N+]2=Cc2ccc(N(CC)CC)cc2O3)cc1 (stereo not shown) | toluene | – | – | – | 2.53 |

For quick reference, copied from above:
| SMILES | matrix | temperature | notes | together with | fluorescence lifetime [ns] |
| --- | --- | --- | --- | --- | --- |
| CN1CCN(c2ccc(/C=C/c3cc(=O)cc(/C=C/c4ccc(N5CCN(C)CC5)cc4)o3)cc2)CC1 | acetonitrile | 298 K | – | excitation 377 nm | 0.49 |
| CCN(CC)c1ccc2c(c1)O[B-]1(c3ccccc3OC)OC(=O)C(c3ccccc3)=N[N+]1=C2 (stereo not shown) | toluene | – | – | – | 2.46 |
